Published values of several laboratories.
Lines come from different studies, so protocols differ. “And” joins repeats or separate records; there may be more than shown. Numbers after ± are the reported error.
Sequence of UniProt Q16584 (whole entry, looked up): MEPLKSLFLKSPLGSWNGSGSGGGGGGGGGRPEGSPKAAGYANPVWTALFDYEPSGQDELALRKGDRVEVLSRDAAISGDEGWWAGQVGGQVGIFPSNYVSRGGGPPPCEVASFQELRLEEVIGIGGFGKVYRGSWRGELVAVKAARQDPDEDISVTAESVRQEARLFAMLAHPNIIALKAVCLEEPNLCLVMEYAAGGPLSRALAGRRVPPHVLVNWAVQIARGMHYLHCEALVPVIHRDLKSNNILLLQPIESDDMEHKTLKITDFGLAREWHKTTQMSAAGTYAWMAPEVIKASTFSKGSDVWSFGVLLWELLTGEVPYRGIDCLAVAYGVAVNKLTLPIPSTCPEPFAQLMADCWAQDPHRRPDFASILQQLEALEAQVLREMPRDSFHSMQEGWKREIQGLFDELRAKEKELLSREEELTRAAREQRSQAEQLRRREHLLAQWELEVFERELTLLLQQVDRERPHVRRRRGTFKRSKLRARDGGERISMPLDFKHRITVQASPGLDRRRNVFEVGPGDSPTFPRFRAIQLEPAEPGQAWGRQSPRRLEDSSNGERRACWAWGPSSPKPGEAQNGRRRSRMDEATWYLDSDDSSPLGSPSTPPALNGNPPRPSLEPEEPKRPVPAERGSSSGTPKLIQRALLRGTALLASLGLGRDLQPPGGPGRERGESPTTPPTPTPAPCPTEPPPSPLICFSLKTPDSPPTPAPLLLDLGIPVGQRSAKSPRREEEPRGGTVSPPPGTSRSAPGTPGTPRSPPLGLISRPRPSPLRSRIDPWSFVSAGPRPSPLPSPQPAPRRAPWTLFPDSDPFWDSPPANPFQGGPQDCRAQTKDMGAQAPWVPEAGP

`CN(C)C(=O)Oc1cccc([N+](C)(C)C)c1` has a train-of-four ratio of 41 (neuromuscular block reversal; rat; dose not given, 6 (unit not given), together with: cisatracurium; relative to: T1 twitch).
`c1ccc(-c2n[nH]cc2-c2ccnc3ccccc23)nc1`: “log2 fold change” 1.66 (kinase binding, competitor, MIB/MS competition, refers to: HRK1; Candida albicans cell lysate; 10 µM; relative to: DMSO).
`COC(=O)c1sc(-c2cccs2)cc1NC(=O)/C=C/C(=O)O`: MCP-1 release “decreased” (ELISA; bone marrow-derived macrophages, C57BL/6J mice; dose not given, 48 h, together with: LPS 24 h).
`CCCN(O)N=Nc1ccc(S(=O)(=O)Nc2onc(C)c2C)cc1` — result for “paw edema volume”: 5.88 ± 0.36 a.u. (carrageenan-induced paw edema; Wistar rat; oral, 100 mg/kg, 2 h after carrageenan, together with: carrageenan 1% subplantar; higher = more edema).
Under “log2 fold change”, `N#Cc1ccn2c(-c3ccncc3)c(-c3ccc(F)cc3)nc2c1` is recorded as 0.173 (kinase binding, competitor, MIB/MS competition, refers to: CDC7; Candida albicans cell lysate; 100 nM; relative to: DMSO).
Under “nicked circular DNA”, `[Cl-].[Cl-].[Pt+2].[Ru+2].c1ccc(-c2nc3cc4ccccc4cc3nc2-c2ccccn2)nc1.c1cnc2c(c1)ccc1cccnc12.c1cnc2c(c1)ccc1cccnc12` is recorded as 17.1% (photoinduced DNA cleavage; supercoiled pcDNA; 250 µM, 0.1 µM pcDNA).
`Cc1ccc(N(O)N=Nc2ccc(S(=O)(=O)Nc3cc(C)on3)cc2)cc1` — result for “paw edema volume”: 3.71 ± 0.12 a.u. (carrageenan-induced paw edema; Wistar rat; oral, 100 mg/kg, 0 h (baseline), together with: carrageenan 1% subplantar; higher = more edema).
Under “colon cytokine levels”, `CN1CC(Oc2cnc(C#N)cc2-c2ccn3nc(NC(=O)C4CC4)cc3c2)C1` is recorded as “decreased” (refers to: IL-1β, IL-6, TNF; Rag2-/- mouse, anti-CD40 colitis; dose not given, day 7).
`CCOC(=O)c1ccc(N)cc1` — result for “tail flick latency AUC”: 835 a.u. and 1250 a.u. and 1670 a.u. and 784 a.u. and 441 a.u. (CD-1 mouse female; subcutaneous, 6.5 mg/mouse, 0 to 180 min; higher = stronger analgesia).
Under “paw edema volume”, `CN(O)N=Nc1ccc(S(=O)(=O)Nc2nccs2)cc1` is recorded as 5.22 ± 1.1 a.u. (carrageenan-induced paw edema; Wistar rat; oral, 100 mg/kg, 3 h after carrageenan, together with: carrageenan 1% subplantar; higher = more edema).
`C[C@@H](O)CCOC(=O)C[C@@H](C)O` has a metabolite level of -2.26 ± 0.76 µmol/L (refers to: C4-OH acylcarnitine; human, plasma; 60 min, log2-transformed values).
`N=C(N)NCCC[C@H](NC(=O)[C@H](CCCNC(=N)N)NC(=O)[C@H](CCCCN)NC(=O)[C@H](CCC(N)=O)NC(=O)[C@H](CCCCN)NC(=O)[C@H](Cc1ccc(O)cc1)NC(=O)[C@@H](N)CCCCN)C(=O)N[C@@H](CO)C(=O)N[C@@H](Cc1ccc(O)cc1)C(=O)N[C@@H](CCCCN)C(=O)O`: “median VAS change” -26 (dentin hypersensitivity patients aged ≥sample A years; 10 µg/tooth, day 36, unit not given; relative to: baseline).
Under “relative tumour volume T/C”, `COc1cc(Nc2ncc3c(n2)-c2ccc(Cl)cc2C(c2c(F)cccc2OC)=NC3)ccc1C(=O)O` is recorded as 0.11 (mouse, NB-1771 neuroblastoma xenograft; oral, 20.8 mg/kg, day 21; relative to: vehicle).
`COc1ccc(C(=O)Nc2ccc(-n3cc(CNc4nc(OC)nc(OC)n4)nn3)cc2)cc1` gave an IC50 of 13.2 ± 3.52 nM (cell viability, MTT; normal colonocytes, rat; 72 h).
`CN(C)C(=O)c1cc2cnc(Nc3ccc(N4CCNCC4)cn3)nc2n1C1CCCC1` — result for “GSEA enrichment score”: -0.247 (RNA-seq GSEA, refers to: HALLMARK_ALLOGRAFT_REJECTION; MB002 tumour; concentration not given, in vivo; relative to: vehicle, direction not given).
For `CC#CC(=O)N[C@H]1CCCN(c2c(F)cc(C(N)=O)c3[nH]c(C)c(C)c23)C1`, the serum immunoglobulin was 5.4 % change (refers to: IgG; human; 0.3 mg once daily, day 21; relative to: baseline).
`COc1ccccc1[C@H](Cn1c(=O)n(C(C)(C)C(=O)O)c(=O)c2c(C)c(-c3ncco3)sc21)OC1CCOCC1` — result for “blood HDL level”: 37.2 ± 5.04 mg/dL (human; 20 mg, post-treatment).
Under “paw edema volume”, `CCN(O)N=Nc1ccc(S(=O)(=O)Nc2onc(C)c2C)cc1` is recorded as 5.73 ± 1.02 a.u. (carrageenan-induced paw edema; Wistar rat; oral, 100 mg/kg, 1 h after carrageenan, together with: carrageenan 1% subplantar; higher = more edema).
For `Cc1n[nH]c2ccc(-c3cc(OC[C@@H](N)Cc4ccccc4)cnc3-c3ccoc3)cc12`, “log2 fold change” read -0.0445 (kinase binding, competitor, MIB/MS competition, refers to: FPK1; Candida albicans cell lysate; 1 µM; relative to: DMSO).
For `C=CC[C@@H]1c2ccc(OC)c(OC)c2CN2CCc3cc4c(cc3[C@H]12)OCO4`, “relative wound size” read 1 (P2rx7+/+ mouse, S. aureus wound infection; dose not given, day 0; relative to: day 0).
Under “normalized enrichment score”, `COc1cc(-c2ccccc2)ncc1C(=O)Nc1ccc2c(=O)[nH]c(-c3ccc(C(C)(C)O)cc3)nc2c1` is recorded as -1.25 (RNA-seq GSEA, refers to: HALLMARK_MYC_TARGETS_V2; organoids, small intestinal, Apc Q1405X, mouse; dose not given, knockout organoids; relative to: DMSO, direction not given).
For `OCC(O)CO`, “hexose phosphate concentration” read 0.381 mM and 0.874 mM and 0.573 mM and 0.519 mM and 0.363 mM (targeted LC-MS; male Slc25a13-/- Gpd2-/- mice, liver; drinking water, 5% w/v, 2 days).
`CC1(C)CCC(c2ccc(Cl)cc2)=C(CN2CCN(c3ccc(C(=O)NS(=O)(=O)c4ccc(N[C@H](CCN5CCOCC5)CSc5ccccc5)c(S(=O)(=O)C(F)(F)F)c4)cc3)CC2)C1` has an EC50 of 677 nM (cell killing, flow cytometry PI exclusion; canine blood CD21+ B cells, dog 31; 24 h).
`C=CCn1c(=O)c2cnc(Nc3ccc(N4CCN(C)CC4)cc3)nc2n1-c1ccc2c(n1)[C@@](O)(CC)CC2`: “tumour growth inhibition” 98.2% (SK-UT-1 xenograft, BALB/c nude mice; oral, 80 mg/kg, day 24, 6 d on, 1 d off x 4 cycles).
For `COc1ccc(-c2cncc(N[C@@H](C)c3cccc(NC(=O)c4cncc(C)c4)c3)n2)cc1OC`, “delta delta Ct” read 0.425 (refers to: rno-miR-142-5p; rat SU5416/hypoxia model, lung; dose not given, unit not given; relative to: SU5416/hypoxia vehicle).
With `COc1cc(/C=C/C(=O)N2CCC=CC2=O)cc(OC)c1OC` the mRNA level was 0.474 (qRT-PCR, refers to: Bcl-xL; nude mouse, 468 xenograft, tumour; 15 mg/kg, 21 days, unit not given; relative to: β-actin, vehicle).
For `CCN(O)N=Nc1ccc(S(=O)(=O)Nc2nccs2)cc1`, “paw edema volume” read 4.61 ± 1.43 a.u. (carrageenan-induced paw edema; Wistar rat; oral, 100 mg/kg, 4 h after carrageenan, together with: carrageenan 1% subplantar; higher = more edema).
`O=C(O)CNC(=O)Cc1ccccc1` has a sarcomere length of 1.72 µm (ventricular cardiomyocytes, C57BL/6 mouse; dose not given, 0.728 s).
`CC(C)C[C@H](NC(=O)[C@@H](Cc1c[nH]c2ccccc12)NC(=O)[C@H](Cc1ccc(O)cc1)NC(=O)[C@H](CO)NC(=O)[C@H](Cc1c[nH]c2ccccc12)NC(=O)[C@H](Cc1c[nH]cn1)NC(=O)[C@@H]1CCC(=O)N1)C(=O)N[C@@H](CCCNC(=N)N)C(=O)N1CCC[C@H]1C(=O)NCC(N)=O`: “stable pubic hair stage” 86.4% (Tanner staging; Chinese overall, central precocious puberty; intramuscular, 22.5 mg day 1, month 6, month 12; relative to: baseline).
`OCCCN1CC[C@@H]2C[C@H]1c1cc(-c3ccc(C(F)(F)F)cc3)ccc12`: “duration of hypersensitivity reversal” roughly 4 days (mechanical hypersensitivity, von Frey test; wild-type mice, spared nerve injury; intravenous, 20 mg/kg).
`O=C(OC(C(F)(F)F)C(F)(F)F)N1CCN(Cc2cccc(Oc3ccccc3)c2)CC1` has a k3 of 0.003 min⁻¹ (PET blocking study; rhesus monkey, brain THA; 0.01 mg/kg, compound pretreatment, together with: [18F]T-401 tracer).
For `CC#Cc1cncc(-c2ccc3c(c2)[C@@]2(N=C(C)C(N)=N2)[C@]2(CC[C@H](OC)CC2)C3)c1`, the reduction was greater than 50% (refers to: Aβ40; beagle dogs, plasma; oral, 24 µmol/kg daily, 2 weeks, 2 h post-dose; relative to: predose).
`CCOC(=O)[C@H](CCc1ccccc1)N[C@@H](C)C(=O)N1CCC[C@H]1C(=O)O`: “left ventricular end-diastolic volume” “increased” (renal hypertensive rat; sc infusion, 40 mg/kg/day; relative to: vehicle).
For `Cc1c(NC(=O)c2cccnc2)c(=O)n(-c2ccccc2)n1C`, “centrally nucleated fibres” read 66% and 62% and 47% and 64% and 53% (histology; Dmd C3333Y mice, gastrocnemius; dose not given).
`Cc1nn(-c2nc3c(F)cc(F)cc3s2)c(O)c1C(c1ccc(C(F)(F)F)cc1)c1c(C)nn(-c2nc3c(F)cc(F)cc3s2)c1O`: “total histology score” 0.333 and 2.33 and 4 and 1.67 and 2 (mouse, cerulein-induced acute pancreatitis; 25 mg/kg; direction not given).
Under “PNH RBC clone size”, `CCO[C@H]1CCN(Cc2c(OC)cc(C)c3[nH]ccc23)[C@H](c2ccc(C(=O)O)cc2)C1` is recorded as 243% (PNH patients, blood; oral, 50 mg then 200 mg, week 4, mean percent change; relative to: baseline).
For `CC[C@@H]1[C@H](F)C(=O)N[C@@H]1COc1nccc2cc(C(N)=O)c(OC)cc12`, the IC50 was greater than 5000 nM (MAP3K11 (Homo sapiens, UniProt Q16584); ATP probe binding, KiNativ profiling, refers to: MLK3 Lys1 probe site; THP-1 cell lysate).
`Cc1cc(NS(=O)(=O)c2ccc(N=NN(C)O)cc2)no1` — result for “paw edema volume”: 5.1 ± 0.41 a.u. (carrageenan-induced paw edema; Wistar rat; oral, 100 mg/kg, 2 h after carrageenan, together with: carrageenan 1% subplantar; higher = more edema).
Under “best overall response PD”, `COc1cc2cc(-c3ccc(CC(=O)Nc4cc(C(C)(C)C(F)(F)F)no4)cn3)cnc2cc1OC` is recorded as 11% (RECIST v1.1; human RET-altered solid tumours; 11 50 mg tablets, phase I).
Under “stable disease duration”, `COc1c(C)cnc(Cn2cc(C#CCCOP(=O)(O)O)c3c(Cl)nc(N)nc32)c1C` is recorded as 6 months (RECIST; colorectal cancer patients; dose not given).
For `O=S(=O)(NCCNC/C=C/c1ccc(Br)cc1)c1cccc2cnccc12`, “embryos reaching blastocyst” read 0% (mouse zygotes; 20 µM, 48 h post-hCG).
`N#Cc1ccc2c(c1)[C@H]1CCCN(C(=O)c3ccc4[nH]cnc4c3)[C@H]1C2` — result for “change from baseline”: -16 ± 5.6 mg/dL (refers to: LDL; human; 80 mg once daily, day 28, adjusted mean; relative to: placebo).
For `C[C@H]1C[C@H]2CSC(N)=N[C@@]2(c2nc(NC(=O)c3ccc(OC(F)F)cn3)cs2)CO1`, “percent change from baseline” read -57.6% (refers to: total Aβ; healthy adults, plasma; 540 mg single dose, 6 h post-dose; relative to: placebo).
`Cn1cc(-c2ccc(-c3cncc(Cl)c3N3CCC4(CCNC4=O)CC3)cc2)cn1` — result for “log2 fold change”: 1.43 (COLO 205; gene expression, microarray, refers to: PDE4A mRNA; concentration not given, 6 h; relative to: untreated cells).

Excerpt of the above:
`COC(=O)c1sc(-c2cccs2)cc1NC(=O)/C=C/C(=O)O`: MCP-1 release “decreased” (ELISA; bone marrow-derived macrophages, C57BL/6J mice; dose not given, 48 h, together with: LPS 24 h).
`CCCN(O)N=Nc1ccc(S(=O)(=O)Nc2onc(C)c2C)cc1` — result for “paw edema volume”: 5.88 ± 0.36 a.u. (carrageenan-induced paw edema; Wistar rat; oral, 100 mg/kg, 2 h after carrageenan, together with: carrageenan 1% subplantar; higher = more edema).
Under “log2 fold change”, `N#Cc1ccn2c(-c3ccncc3)c(-c3ccc(F)cc3)nc2c1` is recorded as 0.173 (kinase binding, competitor, MIB/MS competition, refers to: CDC7; Candida albicans cell lysate; 100 nM; relative to: DMSO).
Under “nicked circular DNA”, `[Cl-].[Cl-].[Pt+2].[Ru+2].c1ccc(-c2nc3cc4ccccc4cc3nc2-c2ccccn2)nc1.c1cnc2c(c1)ccc1cccnc12.c1cnc2c(c1)ccc1cccnc12` is recorded as 17.1% (photoinduced DNA cleavage; supercoiled pcDNA; 250 µM, 0.1 µM pcDNA).
